Results gathered from unrelated publications.
Every numbered part comes from another study and shows a few of its results, in no order. Positions count from the first letter of the parent shown.
Chain of UniProt Q9UKS7 (whole entry, looked up): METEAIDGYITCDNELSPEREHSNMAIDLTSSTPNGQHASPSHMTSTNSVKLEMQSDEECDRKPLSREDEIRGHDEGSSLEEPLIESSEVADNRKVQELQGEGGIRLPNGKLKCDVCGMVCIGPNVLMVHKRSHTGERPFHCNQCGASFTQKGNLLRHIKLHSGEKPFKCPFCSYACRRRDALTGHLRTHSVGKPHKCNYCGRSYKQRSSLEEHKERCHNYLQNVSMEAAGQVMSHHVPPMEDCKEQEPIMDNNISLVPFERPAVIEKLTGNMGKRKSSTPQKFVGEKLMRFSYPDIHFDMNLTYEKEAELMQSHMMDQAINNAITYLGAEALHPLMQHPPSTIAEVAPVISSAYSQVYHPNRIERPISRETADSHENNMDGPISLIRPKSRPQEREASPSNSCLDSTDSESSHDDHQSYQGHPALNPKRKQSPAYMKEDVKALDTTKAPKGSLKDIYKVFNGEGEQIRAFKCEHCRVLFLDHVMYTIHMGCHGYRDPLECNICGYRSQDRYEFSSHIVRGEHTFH
Chain of UniProt P61075 (whole entry, looked up): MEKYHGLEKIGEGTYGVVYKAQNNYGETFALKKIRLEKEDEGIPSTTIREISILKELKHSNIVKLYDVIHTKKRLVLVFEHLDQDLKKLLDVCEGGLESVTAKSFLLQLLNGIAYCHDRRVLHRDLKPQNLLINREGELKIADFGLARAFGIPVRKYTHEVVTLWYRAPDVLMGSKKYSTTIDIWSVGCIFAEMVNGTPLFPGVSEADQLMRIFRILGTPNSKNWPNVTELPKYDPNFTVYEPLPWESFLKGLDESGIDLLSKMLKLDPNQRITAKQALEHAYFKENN
Chain of UniProt Q96SW2 (whole entry, looked up): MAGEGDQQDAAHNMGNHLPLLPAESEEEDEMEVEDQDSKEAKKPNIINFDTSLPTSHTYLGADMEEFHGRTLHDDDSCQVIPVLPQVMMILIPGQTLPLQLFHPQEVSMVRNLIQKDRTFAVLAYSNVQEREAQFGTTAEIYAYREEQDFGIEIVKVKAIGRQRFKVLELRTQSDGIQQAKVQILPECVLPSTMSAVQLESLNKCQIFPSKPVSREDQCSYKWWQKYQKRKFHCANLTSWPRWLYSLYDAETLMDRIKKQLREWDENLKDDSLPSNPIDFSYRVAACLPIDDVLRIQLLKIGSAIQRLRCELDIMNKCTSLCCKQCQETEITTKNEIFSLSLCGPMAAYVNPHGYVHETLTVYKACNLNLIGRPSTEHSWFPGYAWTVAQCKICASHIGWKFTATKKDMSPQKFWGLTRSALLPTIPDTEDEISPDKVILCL

Set 1 — target: CCNE2, cyclin fold, Cln2 fusion (human); method: yeast growth competition, sequencing; medium: yeast; setting: strong parent motif; baseline: not given; direction: higher = stronger binding; measurement: normalised enrichment score
Parent: viral docking peptide; YKVKRRLVFGADD; partner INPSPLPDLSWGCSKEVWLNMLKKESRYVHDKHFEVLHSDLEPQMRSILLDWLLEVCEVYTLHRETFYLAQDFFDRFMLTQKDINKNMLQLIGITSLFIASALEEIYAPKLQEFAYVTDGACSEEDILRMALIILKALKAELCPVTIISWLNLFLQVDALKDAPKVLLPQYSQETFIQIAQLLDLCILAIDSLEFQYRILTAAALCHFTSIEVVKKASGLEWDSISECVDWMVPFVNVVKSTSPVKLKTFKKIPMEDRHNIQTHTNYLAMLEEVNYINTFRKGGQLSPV
G10K: 4.71
D12G: 6.01
V8Q: 5.43
V3F: 2.97
K4G: 0.993
V3Y: 3.56

Single results of other studies
CBF1 full length, N-terminal tag: Centromere-binding protein 1, full length, N-terminal tag (CBF1, Saccharomyces cerevisiae, UniProt P17106, residues 1-351)
Chain of UniProt P17106 (whole entry, looked up): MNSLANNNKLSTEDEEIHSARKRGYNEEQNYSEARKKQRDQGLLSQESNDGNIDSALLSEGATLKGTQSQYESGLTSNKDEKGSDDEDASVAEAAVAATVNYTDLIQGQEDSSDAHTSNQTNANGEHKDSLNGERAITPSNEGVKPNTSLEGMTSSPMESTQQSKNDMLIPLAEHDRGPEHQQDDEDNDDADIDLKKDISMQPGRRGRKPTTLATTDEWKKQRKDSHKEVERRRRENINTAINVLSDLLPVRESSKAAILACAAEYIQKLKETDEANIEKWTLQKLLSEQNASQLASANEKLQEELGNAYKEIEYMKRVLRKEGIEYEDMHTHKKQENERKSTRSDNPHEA
C[C@@H](c1cccc(C#N)c1)n1cc(Cl)cc(C(N)=O)c1=N
remaining binding (Cyclin-dependent kinase 2 homolog (CRK2, Plasmodium falciparum, UniProt P61075); cell-free assay, competition with immobilised ligand; 1 µM): 100%

C[C@]12C=CC(=O)C=C1CCC1C2CC[C@]2(C)C(=O)CCC12 (stereo partly drawn)
remaining compound (human, microsomes or S9; 2 µM, 0.5 h): 60.8%

CTAGCTGACTAAAATAGTGTGACACAACGTACATTCGTCTTGATTCGCTTGACGCTGCTG
fluorescence intensity (CBF1 full length, N-terminal tag; protein-binding microarray; double-stranded DNA, one strand shown, in vitro; 0.8 µM, whole 60-bp probe, no competitor; higher = stronger binding): 589 a.u.

NCC(CC(=O)O)c1ccc(Cl)cc1 (racemic)
nuclei count (mouse MPNST tumor cells; high-content nuclear imaging, refers to: cell number; 10 µM, 12 h, mean of 2 replicates; baseline: plate mean, higher = more cells): 0.363 z-score

CCTAACTACTATAGTCATGTTGTATAGCTTCGTACAGTCTTGATTCGCTTGACGCTGCTG
fluorescence intensity (CBF1 full length, N-terminal tag; protein-binding microarray; double-stranded DNA, one strand shown, in vitro; 0.8 µM, whole 60-bp probe, no competitor; higher = stronger binding): 549 a.u.

O=C1CCC(N2Cc3c(ccc4c3OCC43CCN(Cc4ccccc4)CC3(F)F)C2=O)C(=O)N1 (stereo not drawn)
protein remaining (CRBN/Zinc finger protein Helios (Homo sapiens, UniProt Q96SW2+Q9UKS7); degrader, HiBiT; HEK293; 0.1694 nM): 101%

Repeated from above (set 1):
D12G: 6.01
V8Q: 5.43
